Results of several laboratories.
Each line is one published result; not all experiments were run side by side. Several values in a cell are separate wells, animals, samples, runs or records. ± gives the spread as reported. Values after ≈ are worked out from the molar mass of the structure shown.
OPRM1: Mu-type opioid receptor (OPRM1, Homo sapiens, UniProt P35372)

CC(=O)N[C@@H](Cc1cn([C@@H]2O[C@H](CO)[C@H](O)[C@H](O)[C@H]2O)nn1)C(=O)NCC(=O)N[C@@H](C)C(=O)N[C@@H](CCC(=O)O)C(=O)N[C@@H](C)C(=O)N[C@@H](CCC(=O)O)C(=O)N1CCC[C@H]1C(=O)N[C@@H](CCC(=O)O)C(=O)NCC(=O)N[C@@H](C)C(=O)N[C@@H](CCC(=O)O)C(=O)N[C@@H](C)C(=O)N[C@@H](CCC(=O)O)C(=O)N1CCC[C@H]1C(=O)N[C@@H](CCC(=O)O)C(=O)NCC(=O)N[C@@H](C)C(=O)N[C@@H](CCC(=O)O)C(=O)N[C@@H](C)C(=O)N[C@@H](CCC(=O)O)C(=O)N1CCC[C@H]1C(=O)N[C@@H](CCC(=O)O)C(=O)NCC(=O)N[C@@H](C)C(=O)N[C@@H](CCC(=O)O)C(=O)N[C@@H](C)C(=O)N[C@@H](CCC(=O)O)C(=O)N1CCC[C@H]1C(=O)N[C@@H](CCC(=O)O)C(=O)NCC(=O)N[C@@H](C)C(=O)N[C@@H](CCC(=O)O)C(=O)N[C@@H](C)C(=O)N[C@@H](CCC(=O)O)C(=O)N1CCC[C@H]1C(=O)N[C@@H](Cc1cn([C@@H]2O[C@H](CO)[C@H](O)[C@H](O)[C@H]2O)nn1)C(=O)NCC(=O)NCC(=O)NCC(=O)NCC(N)=O  inhibition potency (ctxB, pentamer (Vibrio cholerae, UniProt P01556); concentration not given; reference: galactose): 160 fold
CCCCCCCCCCCCCCCC(=O)N[C@@H](CCC(=O)NCCOCCOCCC(=O)NCCOCCOCCC(=O)NCCCC[C@H](NC(=O)[C@H](CC(=O)O)NC(=O)[C@H](CC(C)C)NC(=O)[C@H](Cc1ccc(O)cc1)NC(=O)[C@H](CCCCN)NC(=O)[C@H](CO)NC(=O)[C@H](Cc1ccc(O)cc1)NC(=O)[C@H](CC(=O)O)NC(=O)[C@H](CO)NC(=O)[C@@H](NC(=O)[C@H](Cc1ccccc1)NC(=O)[C@@H](NC(=O)CNC(=O)[C@H](CCC(N)=O)NC(=O)[C@@H](CO)NC(=O)[C@@H](N)Cc1c[nH]cn1)[C@@H](C)O)[C@@H](C)O)C(=O)N[C@@H](CCCNC(=N)N)C(=O)N[C@@H](CCCNC(=N)N)C(=O)N[C@@H](C)C(=O)N[C@@H](CCC(N)=O)C(=O)N[C@@H](CC(=O)O)C(=O)N[C@@H](Cc1ccccc1)C(=O)N[C@H](C(=O)N[C@@H](CCC(N)=O)C(=O)N[C@@H](Cc1c[nH]c2ccccc12)C(=O)N[C@@H](CC(C)C)C(=O)N[C@@H](CC(C)C)C(=O)N[C@@H](CC(N)=O)C(=O)N[C@H](C(=O)NCC(=O)NCC(=O)N1CCC[C@H]1C(=O)N[C@@H](CO)C(=O)N[C@@H](CO)C(=O)NCC(=O)N[C@@H](C)C(=O)N1CCC[C@H]1C(=O)N1CCC[C@H]1C(=O)N1CCC[C@H]1C(=O)N[C@@H](CO)C(N)=O)[C@@H](C)O)C(C)C)C(=O)O  serum enzyme activity (refers to: CK; rhesus monkey, male; subcutaneous, 20 µg/kg once daily, 28 days): 161 ± 57 U/L
CC(C)(C)OC(=O)C[C@H](NC(=O)OCc1ccccc1)C(=O)CBr  time to onset of irreversible inhibition (Replicase polyprotein 1ab, main protease (rep, Severe acute respiratory syndrome-related coronavirus, UniProt P0C6X7); enzyme activity, inhibitor; concentration not given): > 12 h
O=C1SCCC1NC(C(=O)NCc1ccccc1)C1CC1 (centres unmarked)  Vmax (Thiosulfate sulfurtransferase (TST, Homo sapiens, UniProt Q16762); activator; 17.1 µM, versus potassium cyanide, together with: sodium thiosulfate 60 mM): 0.17 ± 0.01 mM/s
O=C(C=Cc1ccc(O)c(O)c1)OC1CC(O)(C(=O)O)CC(OC(=O)C=Cc2ccc(O)c(O)c2)C1O (centres unmarked)  kon (Spike glycoprotein (Severe acute respiratory syndrome coronavirus 2, UniProt P0DTC2); binding): 892 M⁻¹ s⁻¹
CC[C@H](C)[C@H](NC(=O)[C@H](CCCCN)NC(=O)[C@H](CCCCN)NC(=O)[C@H](CC(C)C)NC(=O)[C@H](Cc1c[nH]c2ccccc12)NC(=O)CN)C(=O)NCC(=O)N[C@@H](CCCCN)C(=O)N[C@@H](CCCCN)C(=O)N[C@H](C(=O)N[C@@H](CCC(=O)O)C(=O)N[C@@H](CCCNC(=N)N)C(=O)N[C@H](C(=O)NCC(=O)N[C@@H](CCC(N)=O)C(=O)N[C@@H](Cc1c[nH]cn1)C(=O)N[C@H](C(=O)N[C@@H](CCCNC(=N)N)C(=O)N[C@@H](CC(=O)O)C(=O)N[C@@H](C)C(=O)N[C@H](C(=O)N[C@H](C(=O)N[C@@H](CCC(N)=O)C(=O)N[C@H](C(=O)N[C@H](C(=O)NCC(=O)N[C@H](C(=O)N[C@@H](C)C(=O)N[C@@H](CCC(N)=O)C(=O)N[C@@H](CCC(N)=O)C(=O)N[C@@H](C)C(=O)N[C@@H](C)C(=O)N[C@@H](CC(N)=O)C(=O)N[C@H](C(=O)N[C@@H](C)C(=O)N[C@@H](C)C(=O)N[C@H](C(=O)N[C@@H](CC(C)C)C(=O)N[C@@H](CCCCN)C(N)=O)[C@@H](C)O)C(C)C)C(C)C)[C@@H](C)CC)[C@@H](C)O)[C@@H](C)CC)[C@@H](C)O)[C@@H](C)O)C(C)C)[C@@H](C)CC  MIC (Acinetobacter baumannii; isolate RKI 19/09, CAMHB): 4 µg/mL (≈ 0.952 µM)
CC(C)C[C@@H]1NC(=O)[C@H](CCCNC(=N)N)NC(=O)[C@@H]2CCCN2C(=O)[C@@H]2CSSC[C@H](NC(=O)CNC(=O)[C@@H]3CCCN3C(=O)[C@H](CCCCN)NC(=O)[C@H](CC(=O)O)NC(=O)[C@@H](NC(=O)CN)C(C)C)C(=O)N[C@@H](CCCNC(=N)N)C(=O)N[C@@H](Cc3ccc(O)cc3)C(=O)N[C@@H](CC(C)C)C(=O)N[C@@H](Cc3ccccc3)C(=O)NCC(=O)NCC(=O)N[C@H]3CSSC[C@H](NC(=O)CNC1=O)C(=O)N[C@@H](CCCCN)C(=O)NCC(=O)N[C@@H](CCCCN)C(=O)NCC(=O)N[C@@H](Cc1c[nH]cn1)C(=O)N[C@@H](CC(=O)O)C(=O)N[C@@H](Cc1ccc(O)cc1)C(=O)N[C@H](C(=O)N[C@@H](C)C(=O)N[C@@H](Cc1c[nH]c4ccccc14)C(=O)N[C@@H](CC(=O)O)C(=O)NCC(=O)N[C@H](C(=O)N[C@@H](Cc1ccccc1)C(=O)N[C@@H](CO)C(=O)N[C@@H](CC(=O)O)C(=O)O)[C@@H](C)O)CSSC[C@H](NC(=O)[C@H](CC(=O)O)NC(=O)[C@H](CC(=O)O)NC(=O)[C@H](CC(=O)O)NC(=O)[C@H](CO)NC(=O)[C@H](CCCCN)NC3=O)C(=O)N2  inactivation time constant ratio (Sodium channel protein type 5 subunit alpha (SCN5A, Homo sapiens, UniProt Q14524); sodium current, automated patch clamp; HEK293; 1 µM, 50 ms depolarizing pulse; reference: compound over control): 1.22 ± 0.04
Cc1ccc(N)cc1C(=O)N[C@H](C)c1ccc2c3c(cccc13)CC2  thermal shift (ΔTm) (Replicase polyprotein 1a, papain-like protease (Severe acute respiratory syndrome coronavirus 2, UniProt P0DTC1); binding; 10 µM): 3 °C and 4.2 °C and 3.2 °C
CS(=O)(=O)NCC1CCOC2(CCN(C(=O)C3(c4ccccc4)CCC3)CC2)C1 (centres unmarked)  nsP2 ATPase inhibition (Polyprotein P1234, nsP2 (Chikungunya virus, UniProt Q8JUX6); nsP2 ATPase activity, inhibitor, ADP-Glo; high micromolar): inactive
CC[C@H](C)[C@@H]1NC(=O)[C@H](CCCNC(=N)N)NC(=O)[C@H](CO)NC(=O)[C@H](CCC(=O)O)NC(=O)[C@H](CC(=O)O)NC(=O)CNC(=O)CNC(=O)[C@H]([C@@H](C)O)NC(=O)[C@H](Cc2ccccc2)NC(=O)[C@H](CO)NC(=O)[C@H]([C@@H](C)O)NC(=O)[C@H](C)NC(=O)[C@@H]2CSSC[C@@H](C(=O)N[C@@H](Cc3ccc(O)cc3)C(=O)N[C@@H](Cc3ccccc3)C(=O)N[C@H](C(=O)N[C@H](C(=O)NCC(=O)O)[C@@H](C)O)[C@@H](C)O)NC(=O)[C@H]([C@@H](C)O)NC(=O)[C@H](CSSC[C@H](NC(=O)[C@H](CCC(=O)O)NC(=O)[C@H](CO)NC(=O)[C@H](CCCCN)NC(=O)[C@H](Cc3ccc(O)cc3)NC(=O)[C@@H]3CCCN3C(=O)[C@H](Cc3ccccc3)NC(=O)[C@H](CCCCN)NC(=O)[C@H](CCCNC(=N)N)NC(=O)[C@H](CCCCN)NC(=O)[C@H](CCCCN)NC(=O)[C@H](Cc3ccc(O)cc3)NC(=O)[C@@H]3CCCN3C(=O)[C@@H](NC(=O)[C@H](CC(=O)O)NC(=O)[C@H](CCCCN)NC(=O)[C@H](CCCCN)NC(=O)[C@@H](NC(=O)[C@@H](NC(=O)[C@@H](N)CCC(=O)O)C(C)C)[C@@H](C)CC)[C@@H](C)O)C(=O)N[C@@H](CC(C)C)C(=O)N[C@@H](CCCCN)C(=O)N[C@@H](C)C(=O)N2)NC(=O)[C@H](CCCCN)NC(=O)[C@H](Cc2ccccc2)NC(=O)[C@H](Cc2ccccc2)NC(=O)CNC(=O)[C@@H]2CCCN2C(=O)[C@H](CCCCN)NC(=O)CNC(=O)[C@H](CCC(=O)O)NC(=O)[C@H](CCC(N)=O)NC1=O  Hill slope (Potassium voltage-gated channel subfamily KQT member 2 (KCNQ2, Homo sapiens, UniProt O43526); potassium current, whole-cell patch clamp; HEK-293T): 0.99 ± 0.06
CC(C)C[C@H](NC(=O)[C@H](CO[C@@H]1O[C@H](CO)[C@@H](O)[C@H](O)[C@H]1O)NC(=O)[C@H](CCCCN)NC(=O)[C@H](CC(C)C)NC(=O)C(C)(C)NC(=O)[C@H](CCCCN)NC(=O)[C@H](CCC(=O)O)NC(=O)[C@H](C)NC(=O)[C@H](CC(C)C)NC(=O)[C@H](CC(N)=O)NC(=O)[C@@H]1CCCN1C(=O)[C@H](CC(C)C)NC(=O)[C@H](Cc1ccccc1)NC(=O)CNC(=O)[C@H](NC(=O)[C@@H](N)Cc1ccc(O)cc1)[C@H](C)O)C(N)=O  Ki (OPRM1; radioligand displacement; CHO membranes; 60 min, pH 7.5, 25 °C, together with: 0.25 nM [3H]DAMGO): 2.6 ± 0.29 nM
COc1cc([N+](=O)[O-])cc(/C=N/NC(=O)[C@H]2COc3ccccc3O2)c1O  koff (uncharacterized protein (Candidatus Liberibacter solanacearum, UniProt A0A094YYW1)): 0.382 s⁻¹
Cc1cc(C)n(-c2nc(-c3ccccc3)cc(=O)n2CC(=O)Nc2cccc([N+](=O)[O-])c2)n1  MIC (Spike glycoprotein, HR1/HR2 domains (Severe acute respiratory syndrome coronavirus 2, UniProt P0DTC2); HR1-HR2 interaction, yeast two-hybrid; AH109; 48 h): 3.12 µg/mL (≈ 7.03 µM)
CC(C)C[C@H](NC(=O)[C@H](CO[C@@H]1O[C@H](CO)[C@@H](O)[C@H](O)[C@H]1O)NC(=O)[C@H](CCCCN)NC(=O)[C@H](CC(C)C)NC(=O)[C@H](C)NC(=O)[C@H](CCCCN)NC(=O)[C@H](CCC(=O)O)NC(=O)C(C)(C)NC(=O)[C@H](CC(C)C)NC(=O)[C@H](CC(N)=O)NC(=O)[C@@H]1CCCN1C(=O)[C@H](CC(C)C)NC(=O)[C@H](Cc1ccccc1)NC(=O)CNC(=O)[C@H](NC(=O)[C@@H](N)Cc1ccc(O)cc1)[C@H](C)O)C(N)=O  Ki (OPRM1; radioligand displacement; CHO membranes; 60 min, pH 7.5, 25 °C, together with: 0.25 nM [3H]DAMGO): 6.1 ± 0.31 nM

Excerpt of the above:
O=C(C=Cc1ccc(O)c(O)c1)OC1CC(O)(C(=O)O)CC(OC(=O)C=Cc2ccc(O)c(O)c2)C1O (centres unmarked)  kon (Spike glycoprotein (Severe acute respiratory syndrome coronavirus 2, UniProt P0DTC2); binding): 892 M⁻¹ s⁻¹
